Experimental data of several laboratories.
Lines come from different studies, so protocols differ. Several values in a cell are separate wells, animals, samples, runs or records. ± gives the spread as reported.
CYP2E1: Cytochrome P450 2E1 (CYP2E1, Homo sapiens, UniProt P05181)
Sequence of UniProt P05181 (whole entry, looked up): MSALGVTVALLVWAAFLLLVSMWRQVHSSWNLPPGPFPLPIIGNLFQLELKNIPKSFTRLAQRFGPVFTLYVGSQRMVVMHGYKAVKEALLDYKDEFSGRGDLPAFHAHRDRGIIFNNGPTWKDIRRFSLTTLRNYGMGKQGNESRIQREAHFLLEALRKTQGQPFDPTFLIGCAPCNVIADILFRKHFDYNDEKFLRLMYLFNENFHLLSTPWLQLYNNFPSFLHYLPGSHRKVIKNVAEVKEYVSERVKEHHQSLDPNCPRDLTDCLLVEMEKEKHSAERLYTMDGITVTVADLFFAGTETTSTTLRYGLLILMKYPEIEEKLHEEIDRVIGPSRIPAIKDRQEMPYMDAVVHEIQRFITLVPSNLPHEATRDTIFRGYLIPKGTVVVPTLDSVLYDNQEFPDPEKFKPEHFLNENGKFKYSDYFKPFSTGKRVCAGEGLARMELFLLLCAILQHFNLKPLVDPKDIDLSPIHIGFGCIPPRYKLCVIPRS
Sequence of UniProt P33261 (whole entry, looked up): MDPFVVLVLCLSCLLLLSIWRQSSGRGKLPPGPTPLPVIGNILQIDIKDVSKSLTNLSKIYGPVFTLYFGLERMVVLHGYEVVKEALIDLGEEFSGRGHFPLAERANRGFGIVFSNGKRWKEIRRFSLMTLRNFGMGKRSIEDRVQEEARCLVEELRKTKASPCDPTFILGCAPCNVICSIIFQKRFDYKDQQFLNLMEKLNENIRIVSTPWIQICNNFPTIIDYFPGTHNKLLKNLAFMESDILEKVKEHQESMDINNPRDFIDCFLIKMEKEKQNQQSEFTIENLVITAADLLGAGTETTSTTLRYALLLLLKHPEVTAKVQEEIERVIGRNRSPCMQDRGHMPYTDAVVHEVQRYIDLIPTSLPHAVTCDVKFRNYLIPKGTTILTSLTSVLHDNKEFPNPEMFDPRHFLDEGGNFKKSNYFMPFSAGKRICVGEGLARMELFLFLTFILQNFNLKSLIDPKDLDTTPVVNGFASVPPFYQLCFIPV

| SMILES | tested on | test | system | conditions | how to read | measurement | value |
| --- | --- | --- | --- | --- | --- | --- | --- |
| CC(C)OCCOCc1ccc(OCC(O)CN(N=O)C(C)C)cc1 (centres unmarked) | Salmonella typhimurium | Ames test | TA1535 | 5000 µg/plate, without metabolic activation | reference: solvent control | revertant fold increase | 0.6 fold |
| CC(C)(O)c1ncc([S@](N)(=O)=NC(=O)Nc2c3c(cc4c2CCC4)CCC3)s1 |  | item: Vascular disorders | healthy human volunteers | oral, 50 mg twice daily, 14 days, enteric-coated tablet |  | subjects with adverse events | 29% |
| O=C1NC2(CC2)COc2ncc(F)cc2[C@H]2COCCN2c2ccn3ncc1c3n2 | Salmonella typhimurium | Ames test | TA1535 | 150 µg/plate, 48 h, with: rat liver S9 |  | revertant colonies | 9 ± 4 revertants/plate |
| CCN(CC)CC#CCNc1ccnc2cc(Cl)ccc12 | Salmonella typhimurium | mini-Ames test | TA97a | 62.5 µg/well, without S9 |  | revertants per well | 12 |
| CN1CCCNC(=O)c2cccc(c2)C(=O)NCCCN(C)CCCNc2cccc3c2C(=O)c2cccc(c2C3=O)NCCC1 | mouse bone marrow cells | CCK-8 |  | 1.5 µM, 48 h | reference: untreated | viability | 78.3% |
| C=C(C)C1CC=C(CN2CCN(Cc3ccccc3)CC2)CC1 (centres unmarked) | Trypanosoma cruzi | reporter mRNA translation, inhibitor, item: Renilla luciferase mRNA | cell-free extract | concentration not given, test 1 | reference: positive over negative control | translation activity | 101% and 97.4% |
| O=C1C2CC3CC1CC(C(=O)N1CCN(c4ccc([N+](=O)[O-])c5ncccc45)CC1)(C3)C2 | Salmonella typhimurium | Ames test | TA97a | 0.02 µg/well, without S9 activation |  | revertant colony count | 18 colonies/well |
| COc1ccccc1/C=C/CN1CCCC(CCC(=O)NCc2ccccc2F)C1 (centres unmarked) | Trypanosoma cruzi | reporter mRNA translation, inhibitor, item: Renilla luciferase mRNA | cell-free extract | concentration not given, test 1 | reference: positive over negative control | translation activity | 106% and 117% |
| COc1ccc2c(c1)C(C)(C)C(/C=C/C1=C(Oc3ccc(C(=O)NCCCCOc4cc(CN(Cc5ccccn5)Cc5ccccn5)cc(CN(Cc5ccccn5)Cc5ccccn5)c4)cc3)C(=C/C=C3/N(CCCCS(=O)(=O)[O-])c4ccc(OC)cc4C3(C)C)CCC1)=[N+]2CCCCS(=O)(=O)[O-].O=[N+]([O-])[O-].O=[N+]([O-])[O-].[99Tc+].[C-]#[O+].[C-]#[O+].[C-]#[O+].[Zn+2] | Staphylococcus aureus |  | BALB/c mice, bacterial myositis, gall bladder | 12 h |  | tissue uptake | 62.9 %ID/g |
| COc1cccc(OC)c1-c1cc(C(=O)NC2(C(=O)O)C3CC4CC(C3)CC2C4)nn1-c1ccc(C(=O)N(C)CCOCCN(C)C(=O)[C@H](CCCCNC(=O)[C@H](CC(C)C)NC(=O)C2OC2C(=O)O)NC(=O)CN2CCN(CC(=O)[O-])CCN(CC(=O)[O-])CCN(CC(=O)[O-])CC2)cc1C(C)C.[177Lu+3] (mixture of isomers) | HT-29 tumour model |  | host not given, stomach | 4 h, tumour-bearing |  | tracer uptake | 1.1 %ID/g |
| N#C[C@@H]1CC(F)(F)CN1C(=O)CNC(=O)c1ccnc2c(NC(=O)[C@@H](N)CCCCNC(=O)CCOCCOCCOCCOCCOCCOCCNC(=O)CN3CCN(CC(=O)[O-])CCN(CC(=O)[O-])CCN(CC(=O)[O-])CC3)cccc12.[177Lu+3] | U-87 MG tumour model |  | host not given, tumour | 1 h, tumour-bearing |  | tracer uptake | 8.93 %ID/g |
| C=C(NC(=O)c1csc(-c2nc3c(cc2O)-c2nc(cs2)C(=O)NC(C(C)O)C(=O)NC(=C(C)OC)c2nc(cs2)C(=O)NC2c4nc(cs4)C(=O)NC(COC(=O)c4c5c6c(cccc6n4O)COC(=O)C(OC4CC(C)(O)C(N(C)C)C(C)O4)C2OC5)c2nc-3cs2)n1)C(N)=O (centres unmarked) | CYP2E1 | enzyme activity, inhibitor, substrate cocktail | pooled human liver microsomes | up to 50 µM, pH 7.4 |  | remaining activity | > 70% |
| O=C(O)c1cc(Br)c(O)c(Br)c1 | CYP2E1 | p-nitrophenol hydroxylation, inhibitor |  | with additive 100 µM |  | IC50 | 41 µM |
| O=C(Nc1cnccc1-c1ccc([18F])nc1)c1ccnc(NC(=O)C2CC2)c1 |  | ex vivo gamma counting | GSK-3β transgenic mice, early-stage, adipose tissue | intravenous, 120 min |  | mean SUV | 0.076 |
| CNC(=O)C1CCCN(C(=O)C2CC3CCC2N3C(=O)[C@@H]2C[C@@H](O)CN2C(=O)NCc2cccc(Cl)c2F)C1 (mixture of isomers) | Cytochrome P450 2C19 (CYP2C19, Homo sapiens, UniProt P33261) | enzyme activity, inhibitor, time-dependent inhibition |  | 50 µM, preincubated with NADPH | reference: negative control | remaining activity | 102% |
| COc1cccc(OC)c1-c1cc(C(=O)NC2(C(=O)O)C3CC4CC(C3)CC2C4)nn1-c1ccc(C(=O)N(C)CCCN(C)CCCN(C)C(=O)[C@H](CCCCNC(=O)[C@H](CC(C)C)NC(=O)C2OC2C(=O)O)NC(=O)CN2CCN(CC(=O)[O-])CCN(CC(=O)[O-])CCN(CC(=O)[O-])CC2)cc1C(C)C.[177Lu+3] (mixture of isomers) | HT-29 tumour model |  | host not given, pancreas | 24 h, tumour-bearing |  | tracer uptake | 0.36 %ID/g |
| N#C[C@@H]1CCCN1C(=O)CNC(=O)c1ccnc2ccc(OCCCN3CCN(C(=O)CCc4ccc5c(c4)CN4CCN(Cc6cc(CCC(=O)O)ccc6O)CC(=O)[O][Al-]([18F])([O]C(=O)C4)[O]5)CC3)cc12 (some centres unmarked) | U-87 MG tumour model |  | host not given, muscle | 2 h, tumour-bearing |  | tracer uptake | 0.89 %ID/g |
| COCC1CN(C2CCN(c3cc(OC)c(Nc4ncc(Br)c(Nc5ccc6c(c5P(C)(C)=O)OCCO6)n4)cc3C)CC2)C1 |  |  | EGFR-mutant NSCLC patients, plasma | oral, 30 mg single dose, geometric mean |  | Cmax | 196 ng/mL |
| N#C[C@@H]1CC(F)(F)CN1C(=O)CNC(=O)c1ccnc2c(NC(=O)[C@H](CCCCNC(=O)CCOCCOCCOCCOCCOCCOCCNC(=O)CN3CCN(CC(=O)[O-])CCN(CC(=O)[O-])CCN(CC(=O)[O-])CC3)NC(=O)CCCc3ccc(I)cc3)cccc12.[177Lu+3] | U-87 MG tumour model |  | host not given, pancreas | 24 h, tumour-bearing |  | tracer uptake | 1.28 %ID/g |
| CCCC[C@H](NC(C)=O)C(=O)N[C@@H](CO)C(=O)N[C@H](C(=O)N1CCC[C@H]1C(=O)N[C@]1(C)CCCCCCC=CCCC[C@@](C)(C(=O)N[C@@H](Cc2ccccc2)C(=O)N[C@@H](CCCCN)C(=O)N[C@@H](CCCNC(=N)N)C(=O)N[C@@H](CC(C)C)C(=O)N[C@@H](CCC(N)=O)C(N)=O)NC(=O)[C@H](CCCNC(=N)N)NC(=O)[C@H](CCCC)NC(=O)[C@H](CC(C)C)NC(=O)[C@H](CCCNC(=N)N)NC(=O)[C@H](CCCNC(=N)N)NC(=O)[C@H](CCCNC(=N)N)NC1=O)[C@@H](C)O | proteinase K | LC-MS |  | 25 µM, 553.6 min, pH 7.4 |  | remaining peptide | 38% and 41.6% |
